Measurements collected from several papers.
A part holds a random share of what one study measured. Positions count from the first letter of the parent shown.

Set 1
Target: Interferon regulatory factor 7, full length, phosphomimetic (IRF7, Homo sapiens, UniProt Q92985, residues 1-503, S101K/S471D/S472D/S475D/S476D/S477D/S483D/S484D/S487D)
Technique: protein-binding microarray
Molecule type: double-stranded DNA, one strand shown
Sample: in vitro
Concentration: 250 nM
Setting: 60-bp whole probe
Added: salmon DNA 0.4 mg/ml
Relative to: random background probes
Reading: higher = stronger binding
Quantity: log fluorescence
Constant ends, left off below: GCCTAGCAC … GTCTTGATTCGCTTGACGCTGCTG
Target sequence (chain): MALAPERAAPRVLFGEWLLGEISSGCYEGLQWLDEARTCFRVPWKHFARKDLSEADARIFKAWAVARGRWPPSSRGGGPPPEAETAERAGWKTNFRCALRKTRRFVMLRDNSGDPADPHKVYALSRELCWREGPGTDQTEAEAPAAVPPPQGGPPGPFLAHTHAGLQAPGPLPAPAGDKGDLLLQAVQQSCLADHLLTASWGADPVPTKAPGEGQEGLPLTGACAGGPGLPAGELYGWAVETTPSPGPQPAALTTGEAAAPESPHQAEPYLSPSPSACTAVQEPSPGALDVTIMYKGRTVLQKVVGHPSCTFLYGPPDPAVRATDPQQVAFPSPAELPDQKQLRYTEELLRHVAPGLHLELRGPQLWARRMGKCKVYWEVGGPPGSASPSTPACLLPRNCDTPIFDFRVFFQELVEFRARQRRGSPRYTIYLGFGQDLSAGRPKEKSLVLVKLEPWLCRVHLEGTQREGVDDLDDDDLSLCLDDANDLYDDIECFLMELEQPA
GACGGTTTCCTTTTCCTGCCGTGCTAG: 6.16 z-score
TTAGGTCTCGCTATCGGTTAGTGCTAG: 1.38 z-score
GGCGCTTTTTTTCCGAGTGAGTGCTAG: 0.2 z-score
ATTGCTTCCTCTTTACTGCTGTGCTAG: 1.12 z-score
TGCATTCCCTTTCTCAACCTGTGCTAG: 2.05 z-score
GACGATATCGGGTATCGATACGTGCTA: 0.485 z-score
GACGATATCGGGACTGGAGGCGTGCTA: -0.329 z-score
TCACTTTTCATGCTCTTACTGTGCTAG: 1.07 z-score
GACGGTTACGGTTTCGGGACGTGCTAG: 4.48 z-score
GACGGACTGCTTTTCCTGTCGTGCTAG: 0.502 z-score
TTAGATCTCAGTATCGATTGGTGCTAG: 1.13 z-score
TTAGATCTCAGTATCCATTAGTGCTAG: 0.157 z-score
GACGATCTAAGTCTCGAGACGTGCTAG: 0.596 z-score
GACGAACTGCTTTTCCTGACGTGCTAG: 0.0848 z-score
TTAGGTCTCGGTTTCTGTTAGTGCTAG: 8.54 z-score
GACGGACTGGACACTGGTGACGTGCTA: -0.604 z-score
TCACCCTTTGCTTTCCTACTGTGCTAG: 0.892 z-score
ACACTCTTCTTTTGCTAATTGTGCTAG: 1.08 z-score
TCATGACTCCCTCTCTGACTGTGCTAG: -0.514 z-score

Set 2
Target: CEBPA, bZIP domain (human)
Technique: DHFR protein complementation
Sample: yeast
Setting: single substitutions, most at no-binding floor
Relative to: wild-type JUN-FOS pair
Reading: higher = stronger binding
Quantity: binding fitness
Starting sequence: JUN, bZIP domain (human); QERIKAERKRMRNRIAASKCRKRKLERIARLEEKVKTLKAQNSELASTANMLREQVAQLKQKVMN; partner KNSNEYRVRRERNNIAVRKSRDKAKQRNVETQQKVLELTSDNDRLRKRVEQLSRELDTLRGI
A29S: -1.43 natural log
E54T: -1.41 natural log
R53K: -1.5 natural log
A49G: -1.48 natural log
L52W: -1.59 natural log
E33A: -1.29 natural log
M51G: -1.51 natural log
E32H: -1.46 natural log
A40K: -1.29 natural log
L45E: -1.56 natural log
S47L: -1.32 natural log
V56P: -1.53 natural log
E54S: -1.46 natural log
A40T: -1.38 natural log
A46K: -1.43 natural log
T48Q: -1.38 natural log
I28R: -1.39 natural log
E33L: -1.47 natural log
R30K: -1.49 natural log
E44F: -1.49 natural log
I28D: -1.36 natural log
E44L: -1.36 natural log
M51N: -1.55 natural log
A29K: -1.58 natural log

Set 3
Target: RING finger protein unkempt homolog, zinc fingers 1-6, GST-SBP tag (UNK, Homo sapiens, UniProt Q9C0B0, residues 30-357)
Chain of UniProt Q9C0B0 (30-357, looked up): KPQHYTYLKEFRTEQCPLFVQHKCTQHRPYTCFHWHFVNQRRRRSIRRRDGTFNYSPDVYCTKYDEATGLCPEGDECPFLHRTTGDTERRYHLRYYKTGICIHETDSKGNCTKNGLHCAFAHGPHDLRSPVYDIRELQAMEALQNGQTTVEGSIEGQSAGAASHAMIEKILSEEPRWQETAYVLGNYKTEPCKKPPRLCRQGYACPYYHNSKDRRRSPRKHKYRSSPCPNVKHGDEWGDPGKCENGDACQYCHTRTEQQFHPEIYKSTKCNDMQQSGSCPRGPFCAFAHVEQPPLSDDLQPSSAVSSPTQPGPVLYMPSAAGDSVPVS
Technique: RNA Bind-n-Seq
Molecule type: RNA
Sample: in vitro
Concentration: not given
Setting: RNA with constant flanks, human-mouse chimeric sites, ends assumed
Relative to: input RNA pool
Reading: higher = stronger binding
Quantity: bound/input enrichment
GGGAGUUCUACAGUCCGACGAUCUGUAGUUUCUUGAUUUAUCAUUUUUCUCUUUUCUUUCUUUCCUUUAGGAAAAGCCUAAAGAUUAGACUGUAAGAAAAACAGAAGCCAUGUUUCGAAGACCUGUGUUACAGGUAUUUCGUCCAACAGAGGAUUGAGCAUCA: 0.131 ratio
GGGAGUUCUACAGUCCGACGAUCGCCACCAAUUCCAGCCAACAUGACCCUUGCUGCCUACAAAGAGAAGAUGAAGGAGCUCCCACUAGUGUCCUUGUUCUGCUCCUGCUUCCUGGCCGAUCCCCUGAAUAAGUCGUCCUACAACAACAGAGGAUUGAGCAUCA: 0.965 ratio
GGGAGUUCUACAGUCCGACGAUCAGAUUCCCCCUCCUGAGACCUCCUCCGAAGUUGGAGUCUCUUACAGAUGCCUCAUCCCCUGUUAGUAUUUUAGUUUGGACCACCCAGCCUUGGACAAUUCCCGCCAACCAGGCAAUUUGCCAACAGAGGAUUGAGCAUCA: 2.4 ratio
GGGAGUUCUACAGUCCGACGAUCACUCAGAGAUCCACCUCCCAAAGUGCUCUGGAGCUCUGUGUGGCCACCACACCUAACUUGAUGGAUAUAUAUUUUUUCUCUUUUAUGUCUUCCUGUUCGUCCAGGGAAGAAAGAUUUGUUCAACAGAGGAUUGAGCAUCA: 1.28 ratio
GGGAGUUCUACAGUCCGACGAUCUUCAAAGAAAAGGGCAGCUGUGUCAUUUCAUAAGUAACUCUGGGGGAGGGAAAUUCUGUUCUUUUGUUUAAUUUUCCCCCAAAUGAAACCAACAUGCGUGUUGAAGAACUGAGAAAAAAUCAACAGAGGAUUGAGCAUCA: 0.103 ratio
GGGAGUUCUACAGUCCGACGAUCGGCCUGGGACCGUCCUGGGCUAGUACAAAUAGCGGCAGUGGAGGCUCGAGAGGAAAGUUUGUUAGUGAGGCAGUGGUAGAGGUCGUCCAUGUACGGUCCUUUACUCGAUAGAUGUGUUCUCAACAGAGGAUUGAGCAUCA: 0.853 ratio
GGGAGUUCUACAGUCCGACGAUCGCAGGAUCUUCUAAGUACCAGUGGGACAUUAUGAAAUCCCUUGGGCUCUCUGAUGACGACAUAGUGAAGUUUUCUGAAGCAGAACAUUGGCUUGAUUAUUUCCCACCACUGGCCGUUCAGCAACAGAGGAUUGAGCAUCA: 0.283 ratio
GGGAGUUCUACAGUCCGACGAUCGAAACAUUUAAAUUUAAAGAAGCUGUUGUUCUAGGAAGUACGGACUUUCUAGAAGAUGAUAUAGAGAAAAUUGUAGAAGAACUGGGGAAAGAAUACAAGGGCAACGCCUACCAUCUGAUGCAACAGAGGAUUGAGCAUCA: 1.1 ratio

Set 4
Target: RNA binding protein fox-1 homolog 2, RRM domain, GST-SBP tag (RBFOX2, Homo sapiens, UniProt O43251-10, residues 100-194)
Technique: RNA Bind-n-Seq
Molecule type: RNA
Sample: in vitro
Concentration: 365 nM
Setting: natural RNA segment, single round, ends assumed
Relative to: no-protein control
Reading: higher = stronger binding
Quantity: RBNS enrichment (R)
Residues (chain): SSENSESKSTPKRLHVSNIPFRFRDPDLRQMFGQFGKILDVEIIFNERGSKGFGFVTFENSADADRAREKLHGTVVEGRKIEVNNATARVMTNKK
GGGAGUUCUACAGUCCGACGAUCGCUUAAAAGUGAGCUUGAAACGUGUGCUUACUAUCUCAUCUCUUCCCUAGUCUUAGUAUUGGACGCUAUUUACUCAGCUAUCAAGUAGAGAUCUUCAAGACGGCCUUUAUUGGAAUUCUCGGGUGCCAA: 0.613
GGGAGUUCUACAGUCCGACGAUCGCCAAGACUAUCAAAGGAACGUAUUGUCGCUUCUGGCUCCUUCCCAGGUGGGCUAGCAUCUGUGAGUUUGCCUCGGCUAGCCUUGCUUCCUACAGCCGCCACUGCUCCUCUGGAAUUCUCGGGUGCCAA: 0.466
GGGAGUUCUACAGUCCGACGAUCUGUACAUUUAAGUCUGUAUUAUAAUAAGCAAAAAGAUUGUGUGUAUGUAUGUUUAAUAUAACAUGACAGGCACUAGGACGUCUGCCUUUUUAAGGCAGUUCCGUUAAGGGUGGAAUUCUCGGGUGCCAA: 0.99
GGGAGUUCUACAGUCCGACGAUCGAUCUCAGCUCACUACAGCCUCCACCUCGUGGGUUCAAACAGUUGUGCUGCCUCAGCUUCCCGAGUAGCUAGGAUUACAGGUGCAUGCCACCACACCUGGCUAAUUUUUGUGGAAUUCUCGGGUGCCAA: 0.342
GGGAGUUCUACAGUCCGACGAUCUCUGUUUAGCGAAGAUAGACUAGAGGACACGUUAGAGAUGCCCUUCCCUGCUCCAUCCCUGUGGCACCAUUAUGGUUUUUUGGCUGUUUGUAUAUACGGUUACGUAUUAAUGGAAUUCUCGGGUGCCAA: 0.7
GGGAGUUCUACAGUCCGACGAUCCCAAUUUUCUUCUACAGCAGAACUUUGAUGAAGAUUGAAGGGACUUUUUUAUAUCUCACACUUCACACCAGUGCAUUACACUAACUUGUUCACUGGAUUGUCUGGGAUGAUGGAAUUCUCGGGUGCCAA: 0.352
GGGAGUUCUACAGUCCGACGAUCGAAGAUAUCUGGGAGAGAAUAUAGAAGACAUCCCAAAGGAAGUGCUGAUGGACUGUGCCCACCUUGUGAAGGCCAAUAGCAUUCAAGGUAAAAAUUGUGACAGUGGAGAAUGGAAUUCUCGGGUGCCAA: 0.986
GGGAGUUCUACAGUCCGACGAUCAUGCAGGAACUAGAAACACAUCUUCAGCCUCCUCCUGGGCCAGCUCUUGUGCUACAGGUGGGGCGGAGCCAGCCCCUCACCUUCCUGGUUCCCUGAGGGUCCUCAGGGUGUGGAAUUCUCGGGUGCCAA: 0.416

A few entries again (set 3):
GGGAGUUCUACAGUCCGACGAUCUGUAGUUUCUUGAUUUAUCAUUUUUCUCUUUUCUUUCUUUCCUUUAGGAAAAGCCUAAAGAUUAGACUGUAAGAAAAACAGAAGCCAUGUUUCGAAGACCUGUGUUACAGGUAUUUCGUCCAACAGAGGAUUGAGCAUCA: 0.131 ratio
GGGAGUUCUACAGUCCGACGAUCGGCCUGGGACCGUCCUGGGCUAGUACAAAUAGCGGCAGUGGAGGCUCGAGAGGAAAGUUUGUUAGUGAGGCAGUGGUAGAGGUCGUCCAUGUACGGUCCUUUACUCGAUAGAUGUGUUCUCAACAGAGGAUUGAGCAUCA: 0.853 ratio
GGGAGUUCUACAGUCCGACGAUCGCAGGAUCUUCUAAGUACCAGUGGGACAUUAUGAAAUCCCUUGGGCUCUCUGAUGACGACAUAGUGAAGUUUUCUGAAGCAGAACAUUGGCUUGAUUAUUUCCCACCACUGGCCGUUCAGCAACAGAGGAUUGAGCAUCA: 0.283 ratio
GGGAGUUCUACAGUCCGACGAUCACUCAGAGAUCCACCUCCCAAAGUGCUCUGGAGCUCUGUGUGGCCACCACACCUAACUUGAUGGAUAUAUAUUUUUUCUCUUUUAUGUCUUCCUGUUCGUCCAGGGAAGAAAGAUUUGUUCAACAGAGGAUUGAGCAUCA: 1.28 ratio
